Measured values gathered from unrelated publications.
Every numbered part comes from another study and shows a few of its results, in no order. Positions count from the first letter of the parent shown.

Block 1
Target: Fragile X messenger ribonucleoprotein 1, C-terminal low-complexity region (Fmr1, Mus musculus, UniProt P35922)
Method: RNA Bind-n-Seq
Molecule type: RNA
Matrix: in vitro
Tested at: 200 nM
Setting: whole 134-nt RNA, ends assumed
Together with: 150 mM LiCl
Reference: input library
Reading: higher = stronger binding
Library: 7-deaza-guanosine replaces G
The log2 enrichment of `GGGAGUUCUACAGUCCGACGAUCGUCCUGUGCUACACAUCGUAUGUACCGAAUCGGGAAAAAAAGGGUUUUUGGGUUUGGGAAAGUAUUAUGUUACGCCGUUCGGAUCUGCACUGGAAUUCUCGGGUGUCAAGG` is reported as -2.47.
`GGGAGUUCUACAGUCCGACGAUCUUGACGAGGCCGGCCCGGGAGAUGAGACCACCGGCCAGGAAGUCAUUGUCAUUCAGGACACGGGCUUUUCUGUGAAGAUCCUCGCCCCUGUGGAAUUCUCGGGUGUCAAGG` has a log2 enrichment of -2.28.
`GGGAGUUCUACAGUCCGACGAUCUGGCCCUGGUGGCAUGCGGGGAGGAAGAGGUGGCCUAAUGGAUCGUGGUGGUCCCGGUGGAAUGUUCAGAGGUGGCCGUGGUGGAGACAGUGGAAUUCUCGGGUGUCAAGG` has a log2 enrichment of 0.86.
`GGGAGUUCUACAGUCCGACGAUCGUCCUGUGCUACACAUCGUAUGUACCGAAUCGGGUUUGGGUUUUUUUGGGUUUUUGGGAAAGUAUUAUGUUACGCCGUUCGGAUCUGCACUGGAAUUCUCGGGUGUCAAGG` has a log2 enrichment of -0.318.
The log2 enrichment of `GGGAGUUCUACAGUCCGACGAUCCUGUGCUACACAUCGUAUGUACCGAAUCGGGGUUUUUUUGGUUUUUUUGGUUUUUUUGGGGAAAGUAUUAUGUUACGCCGUUCGGAUCUGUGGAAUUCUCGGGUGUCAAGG` is reported as 0.404.
`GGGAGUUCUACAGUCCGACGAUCGUCCUGUGCUACACAUCGUAUGUACCGAAUCGGGAAAGGGAAAAAGGGUUUUUUUGGGAAAGUAUUAUGUUACGCCGUUCGGAUCUGCACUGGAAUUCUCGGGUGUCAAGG` has a log2 enrichment of -1.14.
The log2 enrichment of `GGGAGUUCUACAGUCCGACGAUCUCCUCAAGUCCUGUGCUACACAUCGUAUGUACCGAAUCGGAGGAGGAGGGGAAAGUAUUAUGUUACGCCGUUCGGAUCUGCACUUCCAGCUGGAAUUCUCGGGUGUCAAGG` is reported as -1.95.
`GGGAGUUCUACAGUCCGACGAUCUCCUGUGCUACACAUCGUAUGUACCGAAUCAAACCCCCAAACCCCCCCAAAUUUUUAAAAAAGUAUUAUGUUACGCCGUUCGGAUCUGCAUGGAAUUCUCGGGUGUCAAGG` has a log2 enrichment of 1.81.
`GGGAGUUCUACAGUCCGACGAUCAAGUCCUGUGCUACACAUCGUAUGUACCGAAUCGGGGUUUGGGGUUUGGUUUGGGGAAAGUAUUAUGUUACGCCGUUCGGAUCUGCACUUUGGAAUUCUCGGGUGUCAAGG` has a log2 enrichment of -1.26.
The log2 enrichment of `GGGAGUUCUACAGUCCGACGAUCUAACUUUAGAGGAGGAUCUGAUGGAUAUGGCAGUGGACGUGGAUUUGGGGAUGGCUAUAAUGGGUAUGGAGGAGCACCUGGAGGUGGCAAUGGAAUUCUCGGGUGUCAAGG` is reported as 0.965.
For `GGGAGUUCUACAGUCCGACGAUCCCUCAAGUCCUGUGCUACACAUCGUAUGUACCGAAUCGGGUUGGUUGGUUGGAAAGUAUUAUGUUACGCCGUUCGGAUCUGCACUUCCAGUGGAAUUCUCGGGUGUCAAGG`, the log2 enrichment was -0.458.

Block 2
Target: RNA binding protein fox-1 homolog 2, RRM domain, GST-SBP tag (RBFOX2, Homo sapiens, UniProt O43251-10, residues 100-194)
Method: RNA Bind-n-Seq
Molecule type: RNA
Matrix: in vitro
Tested at: 365 nM
Setting: natural RNA segment, single round, ends assumed
Reference: no-protein control
Reading: higher = stronger binding
Construct (chain): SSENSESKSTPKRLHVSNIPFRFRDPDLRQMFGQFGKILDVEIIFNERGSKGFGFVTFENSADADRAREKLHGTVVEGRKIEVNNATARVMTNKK
`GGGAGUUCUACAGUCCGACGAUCUGUUUGCUAAACCUUGAAGAAACAUGUGCCUCAGCCUAGAUGUUUUGUCUUCUCUUUUCUGCACUUAAUACCUGACAGUAUGACCGAUCUCUGCGCCUUUCUGGGGGCGGUGGAAUUCUCGGGUGCCAA`: “RBNS enrichment (R)” 0.298.
For `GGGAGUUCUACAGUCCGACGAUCGUGUGGCAUUUGUGUUCCAUUACCGGCCCCUUUAAGUAACGGCCUUCACAGCACCUUCCCAGUGGGUAGAAAGCCACACACCAGGAUGUGGGUCAACCAUGAAGAUGUGGUGGAAUUCUCGGGUGCCAA`, “RBNS enrichment (R)” read 0.324.
`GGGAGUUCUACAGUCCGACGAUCACGAAUGUACCGCCAGUAUUAUCAGCAGUCAACAAGCACCUUCCUCUCCACAGAAGCAGCUGGAAGAGAACUCGAGGGGCUGUGCUGCAGGCCUCCCCUCGAAAGACACUUGGAAUUCUCGGGUGCCAA` — result for “RBNS enrichment (R)”: 0.48.
For `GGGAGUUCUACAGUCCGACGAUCAAAUAUGUCUGACAGGAUUGGAAUCAGACUAUGUGAUUUGCUUGUAAAGAUUAGUUUCAGUGAGUCCCAGGGACUAAUUAAGGUUUAUUUUUAAAAGCGUCUGCCUUGGUUGGAAUUCUCGGGUGCCAA`, “RBNS enrichment (R)” read 1.07.
`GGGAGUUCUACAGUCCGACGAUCAAGAAAUGUUAAGACUCGUGAAAAGAAUUACUAUAAGGUACUGUGAAAUAACUGCGAUUUUGUGAGCAAAACAUACUUGGAAAUGCUGAUUGAUUUUUAUGCUUGUUAGUUGGAAUUCUCGGGUGCCAA`: “RBNS enrichment (R)” 1.11.
`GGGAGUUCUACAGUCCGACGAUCGGACAAGGGACGACGGCCGACGGCAGAGCAUCAGCAGCCGACACAUAGUUCGGGUCGGGGCCUUGGGUGGUCCUGCAUGGCCCGGGACUCAUCUCACGGACCCUCCGUUCUGGAAUUCUCGGGUGCCAA`: “RBNS enrichment (R)” 0.555.
`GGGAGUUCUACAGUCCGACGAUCGGUGGAUUUUCGUUGUCCGUGGAAGAACACAUGGAUCUCUCUGGCUUUCUCACCCAAGUUGGCCACUUACGCUAAUCCUGGAAGUAUGAUCACUUUUGAACCUGCCCCUUUGGAAUUCUCGGGUGCCAA` — result for “RBNS enrichment (R)”: 0.277.
`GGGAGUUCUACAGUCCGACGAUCACUGCUCCCUGUGAAAUUCUGAAGGUGUUUCUUAGUGGAUUAUCGUAAAUCACUGAACCUUUUUUUCAAGAAGGACAAGAAUUUUGGAGUCUGCUAUUAAUGGACCAUAUUGGAAUUCUCGGGUGCCAA`: “RBNS enrichment (R)” 0.261.
`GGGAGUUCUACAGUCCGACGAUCUACCUCCAUUCUGAAGAGGGAGGUUUUGGUGUCCCUGGUCCUCUGGGAAUAGAAGAUCCAUUUGUCUUUGUGUAGAGCAAGCACGUUUUCCACCUCACUGUCUCCAUCCUUGGAAUUCUCGGGUGCCAA` — result for “RBNS enrichment (R)”: 0.891.
For `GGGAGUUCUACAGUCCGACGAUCACUCUCUCAGAGUAAAUGGUGGGAAGGGAUCCCUUUGUAUACUUUUUUAAAUACUACAAAUUAGUGUCAGGCAGUUCCCAGAAAGAGACAAGAAAUCCUAGUGGCCUCCCUGGAAUUCUCGGGUGCCAA`, “RBNS enrichment (R)” read 0.335.
Under “RBNS enrichment (R)”, `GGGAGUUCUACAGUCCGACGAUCCUGUGGGGGAACUCAGUGGCAGGAAGCUAGUGGUCCCUGGGAACAGGGGACAGGAAUCCGUACCCAACUGCCCCGUUCUUUCUUCCCAUUCUUUCUUCCUAGGAUGCAUAUGGAAUUCUCGGGUGCCAA` is recorded as 0.375.
Under “RBNS enrichment (R)”, `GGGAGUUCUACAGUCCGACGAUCGAAGGCCAGGAAGAAUGGUGUGUUUCCCUAGACUCUGUAACCACCUCUCUGUCUUUUUCCUUCCUGAGAAACGUCCAUCUCUCUCCCUUACUAUUCCCACUUUCAUUCAAUGGAAUUCUCGGGUGCCAA` is recorded as 0.808.

Block 3
Target: CCND3, cyclin fold, Cln2 fusion (human)
Method: yeast growth competition, sequencing
Matrix: yeast
Setting: strong parent motif
Reference: not given
Reading: higher = stronger binding
Starting sequence: INSM1 docking peptide (human); PKAIRKLHFEDEV
For `PKAIRKCHFEDEV [L7C]`, “normalised enrichment score” read 0.218.
`PKAIIKLHFEDEV [R5I]`: “normalised enrichment score” 0.00777.
Under “normalised enrichment score”, `PKAIRKLHFESEV [D11S]` is recorded as 0.466.
`PKAIRKLHFETEV [D11T]` — result for “normalised enrichment score”: -0.105.
`PKAIRKLHFCDEV [E10C]`: “normalised enrichment score” 0.569.
Under “normalised enrichment score”, `PKAIKKLHFEDEV [R5K]` is recorded as 0.477.
Under “normalised enrichment score”, `PKAIPKLHFEDEV [R5P]` is recorded as -0.142.
`PKAIRMLHFEDEV [K6M]` — result for “normalised enrichment score”: 0.882.
`PKAIRKLHFEDVV [E12V]`: “normalised enrichment score” 0.558.
`PKAIRKLHFEMEV [D11M]`: “normalised enrichment score” 0.31.
For `PKAIAKLHFEDEV [R5A]`, “normalised enrichment score” read 0.0699.
`PWAIRKLHFEDEV [K2W]` — result for “normalised enrichment score”: 0.405.
`PKAHRKLHFEDEV [I4H]` — result for “normalised enrichment score”: 0.2.
`PKAIRKLHFEVEV [D11V]` — result for “normalised enrichment score”: 0.321.
`PKAIRKLNFEDEV [H8N]`: “normalised enrichment score” 1.55.
`PKAIVKLHFEDEV [R5V]`: “normalised enrichment score” 0.0731.
For `PKAIEKLHFEDEV [R5E]`, “normalised enrichment score” read 0.118.
Under “normalised enrichment score”, `PKAIRKLHFSDEV [E10S]` is recorded as 0.998.

Single results of other studies
`PhoQ, residues 284 288 289 292 302 303 TTSMTC` gave a fold induction of 23.9 (PhoP, residues 12 14 15 18 19 NHTVL (Escherichia coli, UniProt P23836); Sort-seq, item: YFP reporter; E. coli; PhoQ-PhoP variant library, together with: 10 µM Mg2+; reference: high Mg2+ state, higher = stronger signaling).
